# Results collected from several papers.
# Protocols differ between the studies behind these lines. Values joined by “and” are separate records of one study, mostly repeats; a detail may differ.
# Target: Mitogen-activated protein kinase 11 (MAPK11, Homo sapiens, UniProt Q15759)
SMILES,assay,test system,conditions,how to read,measurement,result
CN1CCN(Cc2ccc(NC(=O)c3cccc(C#Cc4cnc(N)c5ncccc45)c3)cc2C(F)(F)F)CC1,"cell-free assay, competition with immobilised ligand",,0.5 µM,,remaining binding,12%
CC(C)=CC1OC(C)(C)C2C=C3C(=O)C(Cl)=CC(O)C3C3C(O)C4OC4C(=O)C132 (stereo not shown),"cell-free assay, competition with immobilised ligand",,10 µM,,remaining binding,97%
Cc1cccc(O[C@H]2CCC[C@@H](C(C)CNCc3ccncc3)C2)c1 (relative stereo),"enzyme activity, inhibitor",,1 µM,,inhibition,3%
CS(=O)(=O)Nc1cccc(-c2csc3cnc(Nc4ccc(N5CCN(CCCCCOc6cccc7c6C(=O)N(C6CCC(=O)NC6=O)C7=O)CC5)cc4)nc23)c1 (stereo not shown),"kinase probe labelling, binder, KiNativ ATP-acylphosphate LC-MS",MOLT-4 live cells,1 µM,,inhibition,-12.9%
CNS(=O)(=O)Nc1nccc(Cc2c(C)c3ccc(Oc4ncccc4F)cc3oc2=O)c1F,"binding, competition with immobilised ligand",,10 µM,,remaining binding,90%
CC(=O)N1c2ccc(-c3ccc(CNC(=O)c4cn5cc(-c6cnc(N)nc6)nc(N6CCOCC6)c5n4)cc3)cc2CC[C@@H]1C,KINOMEscan,,10 µM,,remaining binding,94%
COc1ccc(C(=O)/C=C/c2ccccc2-c2c[nH]c3ccc(C#N)cc23)c(O)c1,"enzyme activity, inhibitor",,20 µM,,inhibition,2%
CCN1CCN(Cc2ccc(C(=O)Nc3ccc(C)c(NCc4cnc5[nH]ccc5c4OC)c3)cc2C(F)(F)F)CC1,"binding, competition with immobilised ligand",,1 µM,,remaining binding,6.4%
COc1ccc(NC(=O)Nc2ccc3c(c2)C(=O)N(C(C)CO)CC(C)C(CN(C)Cc2ccc4c(c2)OCO4)O3)cc1 (stereo not shown),"kinase activity, KinaseProfiler",,"0.03 µM, species human",baseline: control,remaining activity,82%
C=C1CCCCCCCCCC(CO)C1=O (stereo not shown),"cell-free assay, competition with immobilised ligand",,10 µM,,remaining binding,96%
CN1CC[C@@H](COc2cnc(C#N)cc2-c2ccn3nc(NC(=O)C4CC4)cc3c2)C1,"enzyme activity, inhibitor",,1 µM,,inhibition,2%
O=C=[N][Ru-4]123([n]4c5ccc(O)cc5c5c6c(c7cc(F)c[n+]1c7c54)C(=O)NC6=O)[S+]1CC[S+]2CC[S+]3CC1 (stereo not shown),enzyme activity,,"100 nM, human enzyme, added: 10 µM ATP",baseline: untreated,remaining activity,106%
COc1cc(Nc2nc(C)cc(-c3cnn4nc(OC)ccc34)n2)cc(C(F)(F)F)c1,KINOMEscan,,"1 µM, p38-beta",baseline: DMSO,remaining binding,100%
C=CC(=O)Nc1cccc(-c2cnc3[nH]cc(C(=O)NC(C)(C)C)c3n2)c1,"enzyme activity, inhibitor",,0.1 µM,,inhibition,2%
Cc1cccc(-c2ccc3nc(NC(=O)C4CCOCC4)nn3c2)c1,"enzyme activity, Dundee kinase panel",,10 µM,,remaining activity,87%
CCn1cc(C(=O)O)c(=O)c2c(N)c(F)c(NC3CCCCC3)cc21,kinase activity,,"0.1 µM, added: ATP at Km",,inhibition,-0.4%
CCN1CCN(Cc2ccc(NC(=O)c3ccc(C)c(NC(=O)c4cncc(-c5cccs5)c4)c3)cc2C(F)(F)F)CC1,"binding, competition with immobilised ligand",,1 µM,,remaining binding,1%
NC(=O)[C@@H](O)C[C@H]1CCc2sc3ncnc(O[C@H]4CC[C@H](N5CCOCC5)CC4)c3c21,"enzyme activity, inhibitor",,10 µM,,inhibition,4%
Cc1cccc(-c2ccc3nc(NC(=O)C4CCCCC4)nn3c2)c1,"enzyme activity, Dundee kinase panel",,10 µM,,remaining activity,82%
COCC12C(=O)NC3C4(C(OC)CC1O)C1CC5(O)C(OC)C(O)C(OC(C)=O)(C1C5OC(=O)c1ccccc1)C3(O)C(OC)C24 (stereo not shown),"kinase activity, inhibitor, ProQinase kinase profiling",,25 µM,baseline: control,remaining activity,109% and 106%
C=CC(=O)N1Cc2nc(-c3cc(-c4cc(Cl)cnc4Cl)c(F)cc3F)n(-c3ccncn3)c2C1,"cell-free assay, inhibitor",,1 µM,,inhibition,6.1%
Cc1nc2c(F)cc(-c3nc(Nc4ccc(CNC(=O)CCCCCCC(=O)NO)cc4)ncc3F)cc2n1C(C)C,"enzyme activity, inhibitor",,1 µM,,inhibition,26%

# Some of these lines once more:
SMILES,assay,test system,conditions,how to read,measurement,result
CNS(=O)(=O)Nc1nccc(Cc2c(C)c3ccc(Oc4ncccc4F)cc3oc2=O)c1F,"binding, competition with immobilised ligand",,10 µM,,remaining binding,90%
CC(=O)N1c2ccc(-c3ccc(CNC(=O)c4cn5cc(-c6cnc(N)nc6)nc(N6CCOCC6)c5n4)cc3)cc2CC[C@@H]1C,KINOMEscan,,10 µM,,remaining binding,94%
COc1ccc(C(=O)/C=C/c2ccccc2-c2c[nH]c3ccc(C#N)cc23)c(O)c1,"enzyme activity, inhibitor",,20 µM,,inhibition,2%
